# Results from different studies.
# Every numbered part comes from another study and shows a few of its results, in no order. Changes are numbered by the printed parent chain.

# Sample 1
# Target: RNA binding protein fox-1 homolog 2, RRM domain, GST-SBP tag (RBFOX2, Homo sapiens, UniProt O43251-10, residues 100-194)
# Technique: RNA Bind-n-Seq
# Molecule type: RNA
# Medium: in vitro
# Concentration: 365 nM
# Setting: natural RNA segment, single round, ends assumed
# Baseline: no-protein control
# Direction: higher = stronger binding
# Shared flanks, not repeated: GGGAGUUCUACAGUCCGACGAUC … UGGAAUUCUCGGGUGCCAA
# Residues (chain): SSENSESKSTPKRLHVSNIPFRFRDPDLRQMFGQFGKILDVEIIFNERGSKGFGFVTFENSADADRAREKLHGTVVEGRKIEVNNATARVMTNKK
Sequence,RBNS enrichment (R)
GUGAUCACCAGGGGACCUAGGGAGAUCCCCUUCCCACCCUCUCUGUUGGCCUCAGAGUCACUCCUGCCCCCUCUCCCUGACUUGGUGCUCACAUGCACCUCACUAGGGUU,0.281
CUAUUUGUUCAGAGAGGCCUUUUGUUUAAAUAUAAAUGUUUAAAUAUAAAUGUUUGUCUGGAUUGGCUAUAACAUGUCUUUCAGCAUUAGGCUUUUAAGAAACACAGGGU,0.455
UCCCUGUAUAUUGCAUGAAUGAGAGAUUUCCCAUAUUUCCAUCAGAGUAAUAAAUAUACUUGCUUUAAUUCUUAAGCAUAAGUAAACAUGAUAUAAAAAUAUAUGCUGAA,9.53
UUUGUGUAUGCGAGACAAAUCCUGUAUUGUACAGGAUAUAAAUAGAUGCAUAAAUCCUUAGAUACCUGGGUUUUUUAAUAGGUUUAGGUUUGGGUAUUGUGUUUCUGGUC,0.609
UCCCACUAUACCUGAGCACCGGGAGCUUCCAGAGCACGCCUGCCUCCCUCCCUCUAGUCUGCAUGUGUGCAAGGAUGUCAGACAGUCUCGACUUAGGAUGGACAGACACA,4.52
GGAAGUGUAUAUACUUUUGGCAAGUCAUACAGCUCAAAUGUGAUGAGAUUUCUGAUGUUAGAGGGAGAUGGAGAGGCUUCCUGAUGCCUCAUCUGCAGGGUCCUGUGCCU,0.333
CAAUUGGUGUUUUUGUUAAACGAAUGAAUCAUCUGUUCAUGCAUGCUCUACUUUGAUAUUAUAACCUAUGUCACAUGUGUUUAAUAAAUACCAUAUAUUUUGUUCUACUA,7.79
CUUUCCCCCAGCCGCACGGGUCCCAGGCCCCAGAGAAGAUGAGUCUAUGGCAUCAGGUUCUUAAACCCAGGAAAGCACCUACAGACCGGCUCCUCCAUGCACUUUACCAG,1.06
UGAUCUCUGCAGUUUGCUCCAGCUACCAGUUUCUUUAGGCAGCUCUUUGUCCUCCCUCUGCCCAGAUUUUGAUGUAGUCUAAUUGACAUCCUUCUCUUCCCAACUUUUGU,0.391
AGAGUCACCACGCAGCAGUGUCCCUUCUUGGGUCUGAGUUCCUAUUAUAGGUAGGGGCCCCACCCUCUGGGCUUCCCAUCAGCGACACACACACACUUAUGGCACCAGCC,0.352
UUUCACUUGUUCCCUCUGAGGCUGAAUGCUCCAAGAGAGUGGGAACUGUGCUUCUUACUUACUGAUAUCCAGUAACUGGCACUUACUAGGUCUUCAUGAAUGUUUCCUGA,0.544
AGCAGGAUGGGGGUGGGGGACCCCGACUGACCUCACAGUUGGCUCUGAGGAGAGGGGGGAAAUUUUAAAUUCUUUAACAUUUUUGUUUCAAUUUCUGUCUUUUGUAAGAC,0.723

# Sample 2
# Target: Max-binding protein MNT, bHLH-zipper, MAX partner unstated (MNT, Homo sapiens, UniProt Q99583, residues 220-300)
# Technique: protein-binding microarray
# Molecule type: double-stranded DNA, one strand shown
# Medium: in vitro
# Concentration: not given
# Setting: k-mer, scored over probes, only values ≥0.25
# Direction: higher = stronger binding
# Residues (chain): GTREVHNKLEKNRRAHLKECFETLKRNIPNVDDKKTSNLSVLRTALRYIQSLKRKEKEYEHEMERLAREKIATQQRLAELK
Sequence,E-score
ATGTGGGA,0.329
CGTGAACC,0.257
CCGACCCC,0.251
CCACCTGC,0.344
CACGCGTA,0.427
ACGCGTGG,0.453
TGCCCGCA,0.278
CCCTCCCC,0.319
AACTCGTG,0.39
GCACAGCC,0.268
ACACGTGG,0.496
ATTGCATG,0.267
ACGCGGTA,0.347
CCGCACGC,0.389
CACCCCTC,0.33
CGTCATGC,0.251
CGCCACAC,0.285
GGTGGGTA,0.299
GATGGGGC,0.254
CGTGTGGC,0.346
ACCCCGCC,0.38
ATGCGGAG,0.27
ACGCATAA,0.271
GCAGTCAC,0.254
CATGCCCA,0.334

# Sample 3
# Target: JUNB, bZIP domain (human)
# Technique: DHFR protein complementation
# Medium: yeast
# Setting: single substitutions, most at no-binding floor
# Baseline: wild-type JUN-FOS pair
# Direction: higher = stronger binding
# Parent: JUN, bZIP domain (human); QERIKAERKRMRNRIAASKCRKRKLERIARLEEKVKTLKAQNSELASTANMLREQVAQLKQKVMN; partner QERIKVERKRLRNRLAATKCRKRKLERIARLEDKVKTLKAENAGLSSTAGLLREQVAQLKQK
Change,binding fitness
L45Q,-1.5 natural log
Q41A,-1.22 natural log
L31W,-1.52 natural log
E54P,-1.52 natural log
A40D,-1.25 natural log
E44G,-1.32 natural log
E44S,-1.23 natural log
A40N,-1.28 natural log
S43R,-0.861 natural log
N42E,-1.4 natural log
L31R,-1.51 natural log
K36A,-1.04 natural log
R30L,-0.924 natural log
A57Y,-1.32 natural log
A46Q,-0.959 natural log
R30E,-0.847 natural log
E44K,-1.2 natural log
T37V,-1.03 natural log
E33V,-1.33 natural log
R30Q,-0.929 natural log
K36D,-1.35 natural log
T48E,-0.85 natural log
E33C,-1.35 natural log
A29R,-1.01 natural log

# Sample 4
# Target: Interferon regulatory factor 5, full length, phosphomimetic (IRF5, Homo sapiens, UniProt Q13568-2, residues 1-514, K96S/S451D/S453D/S456D/S462D)
# Technique: protein-binding microarray
# Molecule type: double-stranded DNA, one strand shown
# Medium: in vitro
# Concentration: 250 nM
# Setting: 60-bp whole probe
# With: salmon DNA 0.4 mg/ml
# Baseline: random background probes
# Direction: higher = stronger binding
# Shared flanks, not repeated: GCCTAGCAC … GTCTTGATTCGCTTGACGCTGCTG
Sequence,log fluorescence [z-score]
TAAGAACTGGGGACTGGATTAGTGCTA,-0.358
TCAAATCTCACTCTGTCACTGTGCTAG,0.718
TTAGATTTCGGGACTGGCTTAGTGCTA,2.37
TTAGGTTTCAGTTCCGATTAGTGCTAG,4.75
TTAGAAGTGAGACTGGATTAGTGCTAG,-0.367
TCATTTTTCCCTATTATACTGTGCTAG,1.49
TTAGAACTGGGCTTTCGATTAGTGCTA,6.22
TTAGAACTGAGTTTCGCTTAGTGCTAG,6.59
TTAGGTCTCGGTTTCAGTTAGTGCTAG,3.03
GACGATTTCAGTTACGAGACGTGCTAG,1.59
TTGGGACTGCTTATCCTTTAGTGCTAG,-0.467
TCAAATTTCTTTCTAATACTGTGCTAG,1.85
TTAGGACTGGACTTTCTGTTAGTGCTA,3.62
CCACACACCATTCTCGGGACGTGCTAG,0.117
TATTGTTTCCTCTTTCACTGGTGCTAG,3.69
TTTTCATTATTGTGTCAACTTGTGCTA,3.13
TCATCTTTCTGTTTTCTACTGTGCTAG,5.47

# Sample 5
# Target: Sal-like protein 4, full length isoform A (SALL4, Homo sapiens, UniProt Q9UJQ4, residues 1-1053)
# UniProt Q9UJQ4, sequence (whole entry, looked up): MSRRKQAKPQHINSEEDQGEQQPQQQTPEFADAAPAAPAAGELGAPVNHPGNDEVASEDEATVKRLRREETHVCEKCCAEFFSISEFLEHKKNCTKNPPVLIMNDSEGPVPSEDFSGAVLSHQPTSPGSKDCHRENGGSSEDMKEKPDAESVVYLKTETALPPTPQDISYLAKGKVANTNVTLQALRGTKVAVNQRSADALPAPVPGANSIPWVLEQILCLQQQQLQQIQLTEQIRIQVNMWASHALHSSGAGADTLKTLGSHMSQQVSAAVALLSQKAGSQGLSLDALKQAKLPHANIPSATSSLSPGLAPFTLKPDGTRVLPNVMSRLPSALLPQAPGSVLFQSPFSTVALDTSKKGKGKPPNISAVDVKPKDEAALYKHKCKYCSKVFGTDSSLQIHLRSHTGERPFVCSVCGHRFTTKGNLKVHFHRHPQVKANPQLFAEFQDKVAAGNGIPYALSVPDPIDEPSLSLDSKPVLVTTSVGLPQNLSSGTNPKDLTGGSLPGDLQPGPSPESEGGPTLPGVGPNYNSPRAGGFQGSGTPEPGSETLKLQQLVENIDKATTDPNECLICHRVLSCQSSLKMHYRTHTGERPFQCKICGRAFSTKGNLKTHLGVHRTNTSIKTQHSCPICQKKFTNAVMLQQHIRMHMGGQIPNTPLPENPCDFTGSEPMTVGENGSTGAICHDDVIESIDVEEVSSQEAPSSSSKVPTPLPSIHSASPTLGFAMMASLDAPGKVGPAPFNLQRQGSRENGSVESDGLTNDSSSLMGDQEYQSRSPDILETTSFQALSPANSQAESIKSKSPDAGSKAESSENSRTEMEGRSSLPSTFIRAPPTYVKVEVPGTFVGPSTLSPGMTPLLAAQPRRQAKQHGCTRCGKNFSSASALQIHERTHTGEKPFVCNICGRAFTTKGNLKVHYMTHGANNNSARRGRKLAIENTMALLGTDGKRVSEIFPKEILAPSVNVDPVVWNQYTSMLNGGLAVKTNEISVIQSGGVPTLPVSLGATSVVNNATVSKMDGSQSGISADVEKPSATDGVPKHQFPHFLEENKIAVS
# Technique: universal PBM
# Molecule type: double-stranded DNA, one strand shown
# Medium: in vitro
# Concentration: 600 nM
# Setting: 8-mer, flanks averaged, mean of replicates
# Direction: higher = stronger binding
Sequence,E-score
GCTACTCA,-0.0736
GGTTTGTA,0.0188
GATGCAAA,0.167
CCAGGCAA,-0.094
AACCGCTG,-0.176
AAAGTTTC,0.077
CACTTAAG,0.108
ACGCACGG,-0.28
CGGCGAGA,-0.332
AAGCTGTA,0.133
CTGCGTGC,-0.257
CCTCGGTC,-0.382
ACTGGGAG,-0.289
ACAGCATC,-0.031
AAAAGGGA,0.0979
GACTTACC,-0.0286
CGCCTACA,-0.0558
CAACAGTG,0.0139
ATGCGGCC,-0.227

# Sample 6
# Target: CCND2, cyclin fold, Cln2 fusion (human)
# Technique: yeast growth competition, sequencing
# Medium: yeast
# Setting: weak parent motif
# Baseline: not given
# Direction: higher = stronger binding
# Parent: E2F1 docking peptide (human); PPVKRRLDLETDH
Change,normalised enrichment score
PPVKRSLDLETDH [R6S],-0.126
PPVKRRLDLETVH [D12V],-0.0995
PPAKRRLDLETDH [V3A],0.655
PPVKRRLDLEIDH [T11I],-0.248
PPVKRRFDLETDH [L7F],-0.113
PPVKRRLDLETWH [D12W],0.0659
PPVKRFLDLETDH [R6F],0.427
PCVKRRLDLETDH [P2C],-0.11
PPVKRRLDLETYH [D12Y],0.744
RPVKRRLDLETDH [P1R],0.101
PPVDRRLDLETDH [K4D],0.0899
PPVWRRLDLETDH [K4W],0.335
PPVMRRLDLETDH [K4M],0.391
PPVKHRLDLETDH [R5H],-0.00479
PPVKRRLDLETDQ [H13Q],0.327
PPVKRRLDLATDH [E10A],0.553
PPVKRRLDLETDV [H13V],0.272
PPVKRRLSLETDH [D8S],0.67
LPVKRRLDLETDH [P1L],0.987
PPVHRRLDLETDH [K4H],0.112
PPWKRRLDLETDH [V3W],0.095
PIVKRRLDLETDH [P2I],0.13
PPVKRRLDLETLH [D12L],0.354
PPVKRRLDLETKH [D12K],0.192
YPVKRRLDLETDH [P1Y],0.729

# Excerpt of the above (sample 2):
Sequence,E-score
CACCCCTC,0.33
GATGGGGC,0.254
CGCCACAC,0.285
CGTGAACC,0.257
ACGCGTGG,0.453
ACGCGGTA,0.347
AACTCGTG,0.39
ATTGCATG,0.267
ATGTGGGA,0.329
CATGCCCA,0.334
